{"data": "Experimental data collected from several papers", "note": "Each numbered part is a random draw from the data of one study; scales do not carry over between parts.", "UniProt Q13470, sequence (whole entry, looked up)": "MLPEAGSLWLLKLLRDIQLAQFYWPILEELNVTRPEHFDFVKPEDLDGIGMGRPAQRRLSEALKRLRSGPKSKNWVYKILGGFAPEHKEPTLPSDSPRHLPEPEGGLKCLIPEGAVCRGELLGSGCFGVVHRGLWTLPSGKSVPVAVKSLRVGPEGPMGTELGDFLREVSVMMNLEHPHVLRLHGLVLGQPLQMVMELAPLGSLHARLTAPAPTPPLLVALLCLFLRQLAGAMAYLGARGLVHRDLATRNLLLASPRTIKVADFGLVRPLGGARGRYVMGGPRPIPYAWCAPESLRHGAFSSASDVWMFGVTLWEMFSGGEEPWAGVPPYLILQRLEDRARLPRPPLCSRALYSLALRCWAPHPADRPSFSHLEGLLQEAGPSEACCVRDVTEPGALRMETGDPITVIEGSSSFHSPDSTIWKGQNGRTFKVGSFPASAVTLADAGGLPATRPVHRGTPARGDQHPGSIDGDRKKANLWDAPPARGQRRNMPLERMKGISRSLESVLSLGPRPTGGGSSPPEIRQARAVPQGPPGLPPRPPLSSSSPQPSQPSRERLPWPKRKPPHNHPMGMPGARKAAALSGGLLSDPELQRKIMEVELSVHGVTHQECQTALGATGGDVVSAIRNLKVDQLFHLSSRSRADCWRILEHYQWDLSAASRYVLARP", "UniProt Q6PHR2, sequence (whole entry, looked up)": "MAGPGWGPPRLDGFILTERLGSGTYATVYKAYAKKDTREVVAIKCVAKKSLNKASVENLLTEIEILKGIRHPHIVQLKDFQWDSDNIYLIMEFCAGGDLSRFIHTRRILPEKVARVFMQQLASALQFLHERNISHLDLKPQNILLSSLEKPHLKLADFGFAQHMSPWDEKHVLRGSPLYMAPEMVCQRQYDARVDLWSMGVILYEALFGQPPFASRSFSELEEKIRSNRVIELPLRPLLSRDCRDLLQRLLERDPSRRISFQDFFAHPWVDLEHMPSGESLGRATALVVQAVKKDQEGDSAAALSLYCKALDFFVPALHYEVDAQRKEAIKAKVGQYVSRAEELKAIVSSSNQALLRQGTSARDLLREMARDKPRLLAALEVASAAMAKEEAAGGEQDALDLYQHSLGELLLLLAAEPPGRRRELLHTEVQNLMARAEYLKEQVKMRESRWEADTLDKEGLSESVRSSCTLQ", "UniProt O76039, sequence (whole entry, looked up)": "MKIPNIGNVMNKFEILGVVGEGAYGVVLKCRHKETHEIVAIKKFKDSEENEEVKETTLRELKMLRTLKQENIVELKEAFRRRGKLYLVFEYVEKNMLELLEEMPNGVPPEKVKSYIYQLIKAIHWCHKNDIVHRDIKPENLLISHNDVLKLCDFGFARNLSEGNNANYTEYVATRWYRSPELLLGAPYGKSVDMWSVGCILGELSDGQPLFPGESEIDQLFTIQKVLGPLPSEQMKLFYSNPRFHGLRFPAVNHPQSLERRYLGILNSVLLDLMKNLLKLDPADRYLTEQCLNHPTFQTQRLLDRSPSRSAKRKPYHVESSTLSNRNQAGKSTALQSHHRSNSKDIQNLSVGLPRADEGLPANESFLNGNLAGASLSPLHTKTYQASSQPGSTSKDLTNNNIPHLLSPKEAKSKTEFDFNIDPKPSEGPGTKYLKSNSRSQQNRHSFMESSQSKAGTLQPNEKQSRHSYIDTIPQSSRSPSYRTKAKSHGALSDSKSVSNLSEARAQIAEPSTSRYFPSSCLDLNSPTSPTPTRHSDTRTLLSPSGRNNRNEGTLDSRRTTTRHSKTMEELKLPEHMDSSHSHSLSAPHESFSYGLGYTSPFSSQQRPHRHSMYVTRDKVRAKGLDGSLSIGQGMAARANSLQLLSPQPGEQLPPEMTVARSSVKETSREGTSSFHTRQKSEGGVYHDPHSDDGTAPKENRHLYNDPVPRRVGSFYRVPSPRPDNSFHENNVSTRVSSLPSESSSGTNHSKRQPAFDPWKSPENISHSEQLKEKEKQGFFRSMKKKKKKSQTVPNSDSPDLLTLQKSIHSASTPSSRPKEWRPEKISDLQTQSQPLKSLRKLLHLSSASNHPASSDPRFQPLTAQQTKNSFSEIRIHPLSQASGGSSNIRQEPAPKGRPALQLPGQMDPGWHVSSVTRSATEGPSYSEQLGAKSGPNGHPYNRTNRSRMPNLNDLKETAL", "UniProt Q13976, sequence (whole entry, looked up)": "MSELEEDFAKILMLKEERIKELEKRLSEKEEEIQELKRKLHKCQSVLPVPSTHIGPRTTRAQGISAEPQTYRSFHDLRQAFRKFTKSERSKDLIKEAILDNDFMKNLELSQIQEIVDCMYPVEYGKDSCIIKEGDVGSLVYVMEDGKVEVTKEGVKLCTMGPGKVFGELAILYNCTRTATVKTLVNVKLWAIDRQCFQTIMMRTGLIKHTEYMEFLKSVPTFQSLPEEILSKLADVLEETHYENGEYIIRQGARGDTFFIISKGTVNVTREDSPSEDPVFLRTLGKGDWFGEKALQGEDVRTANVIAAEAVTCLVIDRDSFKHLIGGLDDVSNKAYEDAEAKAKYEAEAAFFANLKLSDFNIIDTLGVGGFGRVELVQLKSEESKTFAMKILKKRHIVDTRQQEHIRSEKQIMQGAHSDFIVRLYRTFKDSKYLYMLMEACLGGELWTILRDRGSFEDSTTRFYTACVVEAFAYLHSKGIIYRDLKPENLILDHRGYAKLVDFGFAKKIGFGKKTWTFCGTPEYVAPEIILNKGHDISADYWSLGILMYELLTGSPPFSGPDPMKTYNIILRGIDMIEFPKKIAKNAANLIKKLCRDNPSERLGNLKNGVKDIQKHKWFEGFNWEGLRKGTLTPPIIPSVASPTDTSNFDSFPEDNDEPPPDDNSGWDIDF", "UniProt Q9NRH2, sequence (whole entry, looked up)": "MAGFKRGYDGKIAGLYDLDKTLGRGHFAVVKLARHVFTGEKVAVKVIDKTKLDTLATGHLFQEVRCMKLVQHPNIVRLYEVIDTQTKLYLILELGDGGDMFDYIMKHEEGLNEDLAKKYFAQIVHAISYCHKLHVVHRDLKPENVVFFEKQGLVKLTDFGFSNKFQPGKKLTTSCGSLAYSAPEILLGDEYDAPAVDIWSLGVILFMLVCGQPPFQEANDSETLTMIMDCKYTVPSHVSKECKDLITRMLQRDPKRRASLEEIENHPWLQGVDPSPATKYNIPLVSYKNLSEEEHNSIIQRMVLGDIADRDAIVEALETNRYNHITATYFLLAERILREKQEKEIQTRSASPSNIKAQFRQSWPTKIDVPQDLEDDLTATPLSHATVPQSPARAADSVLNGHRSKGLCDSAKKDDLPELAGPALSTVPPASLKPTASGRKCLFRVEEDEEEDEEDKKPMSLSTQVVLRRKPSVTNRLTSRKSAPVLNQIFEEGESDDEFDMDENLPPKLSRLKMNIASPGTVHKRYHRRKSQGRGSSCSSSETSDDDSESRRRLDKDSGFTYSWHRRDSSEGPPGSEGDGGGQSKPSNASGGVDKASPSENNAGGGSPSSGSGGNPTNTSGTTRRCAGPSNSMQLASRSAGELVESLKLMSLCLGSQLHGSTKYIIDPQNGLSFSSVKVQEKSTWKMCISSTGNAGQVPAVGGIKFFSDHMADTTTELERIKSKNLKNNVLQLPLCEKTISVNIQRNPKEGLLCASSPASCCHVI", "UniProt P36894, sequence (whole entry, looked up)": "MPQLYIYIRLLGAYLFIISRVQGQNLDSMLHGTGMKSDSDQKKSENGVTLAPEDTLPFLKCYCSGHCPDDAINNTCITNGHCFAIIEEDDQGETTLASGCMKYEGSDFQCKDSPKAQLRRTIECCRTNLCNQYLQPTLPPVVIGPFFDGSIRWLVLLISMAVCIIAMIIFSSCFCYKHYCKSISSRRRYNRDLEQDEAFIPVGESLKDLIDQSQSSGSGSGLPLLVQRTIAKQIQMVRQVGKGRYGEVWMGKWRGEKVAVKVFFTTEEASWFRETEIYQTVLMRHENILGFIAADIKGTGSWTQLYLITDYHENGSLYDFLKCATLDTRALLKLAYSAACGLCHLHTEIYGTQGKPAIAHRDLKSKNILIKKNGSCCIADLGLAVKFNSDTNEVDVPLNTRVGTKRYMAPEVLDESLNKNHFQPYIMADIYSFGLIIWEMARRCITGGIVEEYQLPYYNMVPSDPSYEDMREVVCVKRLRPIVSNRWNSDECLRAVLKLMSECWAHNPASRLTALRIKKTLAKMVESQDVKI", "UniProt Q96GD4, sequence (whole entry, looked up)": "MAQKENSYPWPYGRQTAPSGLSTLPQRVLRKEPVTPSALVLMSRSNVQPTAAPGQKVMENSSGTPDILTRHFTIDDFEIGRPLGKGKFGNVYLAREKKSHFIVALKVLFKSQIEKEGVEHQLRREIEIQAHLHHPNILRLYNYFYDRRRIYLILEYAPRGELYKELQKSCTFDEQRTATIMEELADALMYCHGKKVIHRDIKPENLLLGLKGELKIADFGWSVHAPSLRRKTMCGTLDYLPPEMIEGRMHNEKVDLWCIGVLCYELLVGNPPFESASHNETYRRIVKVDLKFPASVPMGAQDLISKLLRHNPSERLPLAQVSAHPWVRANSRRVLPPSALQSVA"}
{"data": "Study 1", "target": "Serine/threonine-protein kinase BRSK1 (BRSK1, Homo sapiens, UniProt Q8TDC3)", "read-out": "enzyme activity", "action": "inhibitor", "tested at": "0.5 µM", "relative to": "control", "Target sequence (Q8TDC3 1-778)": "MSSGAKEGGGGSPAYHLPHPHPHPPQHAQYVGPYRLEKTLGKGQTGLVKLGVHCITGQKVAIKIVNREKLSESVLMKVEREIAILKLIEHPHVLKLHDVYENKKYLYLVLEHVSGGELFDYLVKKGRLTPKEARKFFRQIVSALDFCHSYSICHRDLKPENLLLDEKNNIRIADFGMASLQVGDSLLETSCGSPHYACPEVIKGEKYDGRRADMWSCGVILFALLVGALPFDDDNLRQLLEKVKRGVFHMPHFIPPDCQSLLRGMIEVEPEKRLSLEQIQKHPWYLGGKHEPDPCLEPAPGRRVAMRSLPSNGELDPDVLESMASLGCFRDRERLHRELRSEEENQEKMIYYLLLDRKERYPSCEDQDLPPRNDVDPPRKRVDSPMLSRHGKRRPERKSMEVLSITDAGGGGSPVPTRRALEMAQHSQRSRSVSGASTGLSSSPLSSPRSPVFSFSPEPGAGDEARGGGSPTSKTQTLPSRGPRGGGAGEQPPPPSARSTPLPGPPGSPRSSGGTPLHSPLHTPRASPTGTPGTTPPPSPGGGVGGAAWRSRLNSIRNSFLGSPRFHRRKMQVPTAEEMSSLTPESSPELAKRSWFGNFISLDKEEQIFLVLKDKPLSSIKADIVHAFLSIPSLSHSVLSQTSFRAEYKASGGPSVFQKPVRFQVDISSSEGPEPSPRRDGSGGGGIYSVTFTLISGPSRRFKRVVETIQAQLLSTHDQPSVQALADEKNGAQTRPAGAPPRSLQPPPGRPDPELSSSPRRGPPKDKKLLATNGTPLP"}
{"SMILES": "Cc1ccc(Nc2nccc(N(C)c3ccc4c(C)n(C)nc4c3)n2)cc1S(N)(=O)=O", "remaining activity [%]": 97.2}
{"SMILES": "CN(C)c1ccc(C=C2C(=O)Nc3ccccc32)cc1", "remaining activity [%]": 99.6}
{"SMILES": "Cn1c2ccccc2c2c3c(c4c5ccccc5n(CCC#N)c4c21)CNC3=O", "remaining activity [%]": 20.2}
{"SMILES": "O=c1c2ccccc2[nH]c(=S)n1CCN1CCC(=C(c2ccc(F)cc2)c2ccc(F)cc2)CC1", "remaining activity [%]": 98.3}
{"SMILES": "O=S(=O)(c1cccc2cnccc12)N1CCCNCC1", "remaining activity [%]": 97.5}
{"SMILES": "Cc1nc(-c2ccccc2)c(-c2ccncc2)o1", "remaining activity [%]": 99.8}
{"SMILES": "COc1cc2ncnc(Nc3ccc(Oc4ccccc4)cc3)c2cc1OC", "remaining activity [%]": 98.7}
{"SMILES": "COc1cc2nccc(Oc3ccc(NC(=S)NC(=O)c4ccccc4C)cc3)c2cc1OC", "remaining activity [%]": 87}
{"SMILES": "N#CC(C#N)=C(N)/C(C#N)=C/c1ccc(O)cc1", "remaining activity [%]": 99.2}
{"SMILES": "CC(C)[C@H](CO)Nc1nc(Nc2cc(N)cc(Cl)c2)c2ncn(C(C)C)c2n1", "remaining activity [%]": 93.1}
{"SMILES": "Cc1ccc(NC(=O)c2ccc(CN3CCN(C)CC3)cc2)cc1Nc1nc(-c2cccnc2)cs1", "remaining activity [%]": 102}
{"SMILES": "O=C1NC(=O)C(c2cn(CCCn3ccnc3)c3ccccc23)=C1Nc1ccccc1", "remaining activity [%]": 95.3}
{"SMILES": "CCOC(=O)c1c(C)[nH]c(/C=C2\\C(=O)Nc3ccccc32)c1C", "remaining activity [%]": 92.6}
{"SMILES": "C#Cc1cccc(Nc2ncnc3cc(OCCOC)c(OCCOC)cc23)c1", "remaining activity [%]": 95.3}
{"SMILES": "NCCNc1ncc(C(N)=O)c(Nc2cccc(C(F)(F)F)c2)n1", "remaining activity [%]": 101}
{"SMILES": "Cn1sc(=O)n(Cc2ccccc2)c1=O", "remaining activity [%]": 102}
{"data": "Study 2", "SMILES": "CN1CCN(C(=O)c2ccc(NC(=O)Nc3ccc(N(C)c4ccnc(Nc5ccc(CS(C)(=O)=O)cc5)n4)cc3)cc2)CC1", "tested at": "1 µM"}
{"target": "Serine/threonine-protein kinase PLK2 (PLK2, Homo sapiens, UniProt Q9NYY3)", "test": "competitive binding panel", "how to read": "relative to: vehicle", "remaining binding [%]": 100}
{"target": "Atypical kinase COQ8A, mitochondrial (COQ8A, Homo sapiens, UniProt Q8NI60)", "test": "competitive binding panel, measured: ADCK3", "how to read": "relative to: vehicle", "remaining binding [%]": 100}
{"target": "SNF-related serine/threonine-protein kinase (SNRK, Homo sapiens, UniProt Q9NRH2)", "test": "competitive binding panel", "how to read": "relative to: vehicle", "remaining binding [%]": 78}
{"target": "Protein kinase C eta type (PRKCH, Homo sapiens, UniProt P24723)", "test": "competitive binding panel", "how to read": "relative to: vehicle", "remaining binding [%]": 100}
{"target": "cAMP-dependent protein kinase catalytic subunit alpha (PRKACA, Homo sapiens, UniProt P17612)", "test": "competitive binding", "setting": "PKAC-alpha", "remaining binding [%]": 100}
{"target": "cGMP-dependent protein kinase 1 (PRKG1, Homo sapiens, UniProt Q13976)", "test": "competitive binding panel", "how to read": "relative to: vehicle", "remaining binding [%]": 100}
{"target": "Activin receptor type-1B (ACVR1B, Homo sapiens, UniProt P36896)", "test": "competitive binding panel", "how to read": "relative to: vehicle", "remaining binding [%]": 77}
{"target": "Leukocyte tyrosine kinase receptor (LTK, Homo sapiens, UniProt P29376)", "test": "competitive binding panel", "how to read": "relative to: vehicle", "remaining binding [%]": 85}
{"target": "Bone morphogenetic protein receptor type-1A (BMPR1A, Homo sapiens, UniProt P36894)", "test": "competitive binding panel", "how to read": "relative to: vehicle", "remaining binding [%]": 32}
{"target": "Tyrosine-protein kinase JAK1 (JAK1, Homo sapiens, UniProt P23458)", "test": "competitive binding panel", "setting": "JH1 catalytic domain", "how to read": "relative to: vehicle", "remaining binding [%]": 76}
{"target": "Serine/threonine-protein kinase ULK3 (ULK3, Homo sapiens, UniProt Q6PHR2)", "test": "competitive binding panel", "how to read": "relative to: vehicle", "remaining binding [%]": 7.6}
{"data": "Study 3", "SMILES": "C=CC(=O)N1CCC[C@@H](n2nc(-c3ccc(Oc4ccccc4)cc3)c3c(N)ncnc32)C1", "action": "inhibitor", "tested at": "1 µM"}
{"target": "Non-receptor tyrosine-protein kinase TNK1 (TNK1, Homo sapiens, UniProt Q13470)", "test": "enzyme activity", "inhibition [%]": 14}
{"target": "Death-associated protein kinase 3 (DAPK3, Homo sapiens, UniProt O43293)", "test": "enzyme activity", "inhibition [%]": 3}
{"target": "Cyclin-dependent kinase-like 1 (CDKL1, Homo sapiens, UniProt Q00532)", "test": "enzyme activity", "inhibition [%]": 45}
{"target": "Cyclin-dependent kinase-like 5 (CDKL5, Homo sapiens, UniProt O76039)", "test": "enzyme activity", "inhibition [%]": 9}
{"target": "Ribosomal protein S6 kinase alpha-5, C-terminal kinase domain (RPS6KA5, Homo sapiens, UniProt O75582)", "inhibition [%]": 11}
{"target": "Activin receptor type-2B (ACVR2B, Homo sapiens, UniProt Q13705)", "test": "enzyme activity", "inhibition [%]": 0}
{"target": "Aurora kinase B (AURKB, Homo sapiens, UniProt Q96GD4)", "test": "enzyme activity", "inhibition [%]": 3}
{"target": "cAMP-dependent protein kinase catalytic subunit PRKX (PRKX, Homo sapiens, UniProt P51817)", "test": "enzyme activity", "inhibition [%]": 26}
{"target": "Phosphatidylinositol 4,5-bisphosphate 3-kinase catalytic subunit alpha isoform (PIK3CA, Homo sapiens, UniProt P42336, H1047Y)", "test": "enzyme activity", "inhibition [%]": 20}
{"target": "Serine/threonine-protein kinase Nek10 (NEK10, Homo sapiens, UniProt Q6ZWH5)", "test": "enzyme activity", "inhibition [%]": 33}
{"data": "Study 4", "target": "D(1A) dopamine receptor (DRD1, Homo sapiens, UniProt P21728)", "read-out": "binding", "method": "radioligand binding", "tested at": "10 µM", "UniProt P21728, sequence (whole entry, looked up)": "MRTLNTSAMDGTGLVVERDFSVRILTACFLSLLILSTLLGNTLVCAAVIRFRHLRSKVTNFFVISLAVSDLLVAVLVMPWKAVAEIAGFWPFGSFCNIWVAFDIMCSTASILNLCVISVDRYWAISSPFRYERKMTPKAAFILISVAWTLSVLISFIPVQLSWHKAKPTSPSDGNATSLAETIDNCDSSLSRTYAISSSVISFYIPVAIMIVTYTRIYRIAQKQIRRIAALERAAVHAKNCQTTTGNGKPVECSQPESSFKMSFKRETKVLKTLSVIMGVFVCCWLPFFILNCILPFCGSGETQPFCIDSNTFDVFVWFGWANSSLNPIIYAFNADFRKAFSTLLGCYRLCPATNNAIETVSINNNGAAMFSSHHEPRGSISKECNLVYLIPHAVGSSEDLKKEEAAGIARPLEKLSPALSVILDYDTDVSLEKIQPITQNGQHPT"}
{"SMILES": "CC(C)CC(=O)N1CCc2nc(-c3ccc(Br)cc3)nc(N(C)Cc3ccccc3)c2C1", "inhibition": "18.5%"}
{"SMILES": "O=C1CCc2cc(Nc3cc(OC4CCOCC4)c([N+](=O)[O-])cc3Cl)ccc2N1", "inhibition": "7.4%"}
{"SMILES": "CN(C)C(=O)Cn1cc(-c2nc([C@@](C)(c3ccc(-c4cnc(N)nc4)cc3)C3CC3)no2)cn1", "inhibition": "4.55%"}
{"SMILES": "C[C@@]1(Cc2ccc(C#N)cc2)C(=O)N(c2cc(Cl)cc(Cl)c2)c2ncc(C(=O)NC3(c4nc(C5CCC5)no4)CC3)n21", "inhibition": "18.6%"}
{"SMILES": "CC(=O)N1CCC(c2ccc(C(=O)NC(=N)N)cc2C(F)(F)F)CC1", "inhibition": "-10.2%"}
{"SMILES": "O[C@]1(C(F)(F)F)CCCC[C@H]1Nc1ccc(F)cc1", "inhibition": "15.6%"}
{"SMILES": "Cc1nc(N2CC[C@@H](O)C2)ncc1-c1cc(C(F)(F)F)cc2[nH]ncc12", "inhibition": "11.1%"}
{"note": "Some of these lines once more (study 1):"}
{"SMILES": "CC(C)[C@H](CO)Nc1nc(Nc2cc(N)cc(Cl)c2)c2ncn(C(C)C)c2n1", "remaining activity [%]": 93.1}
{"SMILES": "NCCNc1ncc(C(N)=O)c(Nc2cccc(C(F)(F)F)c2)n1", "remaining activity [%]": 101}
